{"data": "Published values pooled from the literature", "note": "A part holds a random share of what one study measured."}
{"data": "Series 1", "target": "RING finger protein unkempt homolog, zinc fingers 1-6, GST-SBP tag (UNK, Homo sapiens, UniProt Q9C0B0, residues 30-357)", "method": "RNA Bind-n-Seq", "molecule type": "RNA", "matrix": "in vitro", "tested at": "not given", "notes": "RNA with constant flanks, human and mouse sites, ends assumed", "relative to": "input RNA pool", "reading": "higher = stronger binding", "Construct (chain)": "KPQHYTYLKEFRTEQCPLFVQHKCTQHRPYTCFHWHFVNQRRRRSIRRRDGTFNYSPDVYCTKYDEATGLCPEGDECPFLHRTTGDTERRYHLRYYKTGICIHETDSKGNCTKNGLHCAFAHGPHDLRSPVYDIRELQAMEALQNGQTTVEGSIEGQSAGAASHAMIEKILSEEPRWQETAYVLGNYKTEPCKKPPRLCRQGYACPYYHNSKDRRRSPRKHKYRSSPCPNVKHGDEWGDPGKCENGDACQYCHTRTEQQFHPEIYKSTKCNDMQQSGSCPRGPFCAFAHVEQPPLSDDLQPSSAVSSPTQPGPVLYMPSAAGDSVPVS"}
{"Oligonucleotide": "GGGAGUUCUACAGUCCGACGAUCCUUCUCAGCAUGGGGAAAUAACAGUUCUCAGGGACAGUCUACUCAAAGCUCUGGAUAUAGUAGCAAUUACGCUUAUGCACCCAGCUCCUUAGGUGGAGCCAUGAUUGAUGGACAGUCAGCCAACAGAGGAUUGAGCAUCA", "bound/input enrichment [ratio]": 0.448}
{"Oligonucleotide": "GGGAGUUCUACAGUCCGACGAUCCAGGUAGGUGUUUCUCUGUUAUGUAAGCAAUAACUUUUUCUGUGUCUUAUGGAGUAUGACUAGCAAUUAUUUAUUUCCAUGCUAGACGGUUCUUUGCAUGUGGGUUCCUUAUAGGUGCAGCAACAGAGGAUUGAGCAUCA", "bound/input enrichment [ratio]": 0.825}
{"Oligonucleotide": "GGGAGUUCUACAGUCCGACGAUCAGUUUCAGUUCAAACUUGAGCCCCCAAGAGUGGGUCCAGCUGUGGUUCACAGUUACCCGUUUUAGAAGUGAAGUUUCAUUUUCUGGGUGCCUUUGAAAACUGACUUCAUGUGUUUGUGACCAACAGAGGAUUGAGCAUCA", "bound/input enrichment [ratio]": 0.229}
{"Oligonucleotide": "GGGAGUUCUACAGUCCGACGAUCUUGUAAUAAGUAUACUCUGUUAUAAUAUUCAACAAAAUUAAAUCCAAAUUCAAAAGUAUCCAUUAAAGUUCUAUCUUCUCAUAUCACAGUUUUUAAAGUUGAAAAGCAUCCCAGUUAAACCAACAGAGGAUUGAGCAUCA", "bound/input enrichment [ratio]": 2.82}
{"Oligonucleotide": "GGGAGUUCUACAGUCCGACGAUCCUGUGGGGACUUGACAGCAAUGCUCAUCUCUCAUGCUUCAAUUUUUCUUUUCUUACUGUUAAUAGGAAAAAAAUCAACAUCUGUAAAUUAAGAAUACAGCAAUUAUCUGUACAGUACUGCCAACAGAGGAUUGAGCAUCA", "bound/input enrichment [ratio]": 0.27}
{"Oligonucleotide": "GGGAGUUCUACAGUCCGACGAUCAGUGAAGAGGCUGGUGUAAUCGAAACAAUUAAGAACAAAAUUAAGAAGAACGUUGAUGCCCGGAAAUCCACCCCCUCCAUGGUCGAUCGACUUCAGAGGCAGAUCAUCAUCGCUGACUGCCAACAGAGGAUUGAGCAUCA", "bound/input enrichment [ratio]": 0.297}
{"Oligonucleotide": "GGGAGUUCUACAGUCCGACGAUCUCUUCCUUUCCUUCUGUCUGUCUGACUCCUGGGUCUGUGCGCCAUGGCAUGAGUGUUUUCUAGUAGUAGACUGGAGUAGUAGACUGUUUCUAAGAACAGAUGAUCUGGUUCCUGAUGUGUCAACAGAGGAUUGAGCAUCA", "bound/input enrichment [ratio]": 0.626}
{"Oligonucleotide": "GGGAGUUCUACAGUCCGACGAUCUAAGCCCGGAGCCCGGCGCUUUCCCCGCAAGAUGGACGGUUUCGCCGGCAGUCUCGAUGAUAGUAUUUCUGCUGCAAGUACUUCUGAUGUUCAAGAUCGCCUGUCAGCUCUUGAGUCACGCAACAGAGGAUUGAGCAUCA", "bound/input enrichment [ratio]": 0.0984}
{"data": "Series 2", "target": "Interferon regulatory factor 3, full length, phosphomimetic (IRF3, Homo sapiens, UniProt Q14653, residues 1-427, S386D/S396D/S398D/S402D/T404D/S405D)", "method": "protein-binding microarray", "molecule type": "double-stranded DNA, one strand shown", "matrix": "in vitro", "tested at": "2540 nM top", "notes": "60-bp whole probe", "with": "salmon DNA 0.4 mg/ml", "relative to": "random background probes", "reading": "higher = stronger binding", "all sequences stand within": "GCCTAGCAC … GTCTTGATTCGCTTGACGCTGCTG", "chain of UniProt Q14653 (whole entry, unmodified, looked up)": "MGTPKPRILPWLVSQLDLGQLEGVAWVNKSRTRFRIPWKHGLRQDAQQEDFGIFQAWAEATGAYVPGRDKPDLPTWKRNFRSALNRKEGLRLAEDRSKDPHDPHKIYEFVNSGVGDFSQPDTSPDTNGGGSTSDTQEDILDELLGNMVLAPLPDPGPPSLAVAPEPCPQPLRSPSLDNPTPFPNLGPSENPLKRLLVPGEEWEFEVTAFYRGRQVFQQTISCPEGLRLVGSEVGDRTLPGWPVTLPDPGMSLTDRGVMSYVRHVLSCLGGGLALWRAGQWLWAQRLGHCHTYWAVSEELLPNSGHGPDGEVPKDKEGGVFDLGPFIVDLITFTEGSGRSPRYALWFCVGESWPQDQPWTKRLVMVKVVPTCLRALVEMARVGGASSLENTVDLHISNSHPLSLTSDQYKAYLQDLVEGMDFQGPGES"}
{"Oligonucleotide": "TTACGTTTCGGTCTCGGTTAGTGCTAG", "fitted relative affinity": "7.91 z-score"}
{"Oligonucleotide": "GACGGTTTCCTTCTCCTGGCGTGCTAG", "fitted relative affinity": "10.1 z-score"}
{"Oligonucleotide": "TTAGGACTGGACAATGGGTTAGTGCTA", "fitted relative affinity": "-0.658 z-score"}
{"Oligonucleotide": "GACGGTTTCGGTCTCGCGACGTGCTAG", "fitted relative affinity": "8.53 z-score"}
{"Oligonucleotide": "TTAGATATCGGGAGTGGATTAGTGCTA", "fitted relative affinity": "-0.362 z-score"}
{"Oligonucleotide": "TTAGTTTCCCTTTTCCTTTAGTGCTAG", "fitted relative affinity": "12.9 z-score"}
{"Oligonucleotide": "GTCGGTTTCCTTCTCCTGACGTGCTAG", "fitted relative affinity": "11.3 z-score"}
{"Oligonucleotide": "TCACTTTTTTGTTCCACACTGTGCTAG", "fitted relative affinity": "1.97 z-score"}
{"Oligonucleotide": "TCACATCTCTGTCCGTGACTGTGCTAG", "fitted relative affinity": "0.903 z-score"}
{"Oligonucleotide": "TTAGGTCTCGGCCTGGGTTAGTGCTAG", "fitted relative affinity": "-0.896 z-score"}
{"Oligonucleotide": "CTTCTCCTCCAGGTTCTCTGAGTGCTA", "fitted relative affinity": "3.31 z-score"}
{"Oligonucleotide": "CTTTAACTCATTTTCGTTTTGTGCTAG", "fitted relative affinity": "2.95 z-score"}
{"Oligonucleotide": "TCATTCCTAATTCTCTTACTGTGCTAG", "fitted relative affinity": "2.09 z-score"}
{"Oligonucleotide": "GACGGTATCGGGTACCGGGACGTGCTA", "fitted relative affinity": "1.3 z-score"}
{"Oligonucleotide": "GACGTACTGAGTCTCGAGACGTGCTAG", "fitted relative affinity": "-0.198 z-score"}
{"Oligonucleotide": "TCACACATTTTTTTCATACTGTGCTAG", "fitted relative affinity": "0.572 z-score"}
{"Oligonucleotide": "GAGGATTTCGGGACTGGAGACGTGCTA", "fitted relative affinity": "0.492 z-score"}
{"Oligonucleotide": "TTAGAACTGGGTTTCGGTTAGTGCTAG", "fitted relative affinity": "3.38 z-score"}
{"Oligonucleotide": "TTCGGTTCCGGTTTCGGTTAGTGCTAG", "fitted relative affinity": "7.46 z-score"}
{"data": "Series 3", "target": "Phosphate system positive regulatory protein PHO4, full length, GST-tagged (PHO4, Saccharomyces cerevisiae, UniProt P07270, residues 1-312)", "method": "competition protein-binding microarray", "molecule type": "double-stranded DNA, one strand shown", "matrix": "in vitro", "tested at": "2 µM", "notes": "whole 60-bp probe, lowest competitor level", "with": "Cbf1 competitor, 0.05 µM", "reading": "higher = stronger binding", "Construct (chain)": "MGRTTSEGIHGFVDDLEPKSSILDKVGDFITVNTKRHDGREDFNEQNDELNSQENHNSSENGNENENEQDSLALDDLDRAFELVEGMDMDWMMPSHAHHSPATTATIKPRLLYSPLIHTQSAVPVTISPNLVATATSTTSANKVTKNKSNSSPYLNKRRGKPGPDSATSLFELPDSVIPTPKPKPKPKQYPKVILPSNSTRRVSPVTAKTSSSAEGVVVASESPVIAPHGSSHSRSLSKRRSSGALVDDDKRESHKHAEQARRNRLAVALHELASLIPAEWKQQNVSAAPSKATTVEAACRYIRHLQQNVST"}
{"Oligonucleotide": "CCAAGGATTGGGTGGCATGTGATATCCAGTCTTGAGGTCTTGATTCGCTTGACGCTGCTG", "fluorescence intensity": "8160 a.u."}
{"Oligonucleotide": "CTTCTGTAAATTTACCACGTGTTTTGACGCGCCCCGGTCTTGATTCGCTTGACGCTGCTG", "fluorescence intensity": "17700 a.u."}
{"Oligonucleotide": "CTAACGAAGGTTTGATACGTGGGTGACAAGCCAAGTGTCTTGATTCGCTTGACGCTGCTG", "fluorescence intensity": "6220 a.u."}
{"Oligonucleotide": "CTTTGTTTTTAACATCACATGTTGTTTCCATCAGAAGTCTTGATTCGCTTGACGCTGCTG", "fluorescence intensity": "9010 a.u."}
{"Oligonucleotide": "AAAGCGGTAATTTGTATTGTGGGTGCAGATATCTATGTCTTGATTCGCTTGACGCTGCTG", "fluorescence intensity": "4290 a.u."}
{"Oligonucleotide": "CTTTCCCGATCTTGATAGGTGGGTGTAGCACATTTGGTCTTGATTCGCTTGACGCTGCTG", "fluorescence intensity": "4190 a.u."}
{"Oligonucleotide": "TGGACCCTTGTCCGTCACGTGAGGAAAAATACTATTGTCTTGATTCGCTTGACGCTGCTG", "fluorescence intensity": "12100 a.u."}
{"Oligonucleotide": "CCGTCGCCACAGAAGCGCGTGGACGCAGGATCGCGCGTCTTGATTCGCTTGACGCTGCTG", "fluorescence intensity": "9860 a.u."}
{"Oligonucleotide": "CTTTCCCGATCTTTTCACGTGACATTAGCACATTTGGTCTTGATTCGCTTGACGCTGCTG", "fluorescence intensity": "10400 a.u."}
{"Oligonucleotide": "GTCTTGTCTCATTGTCACAATACTTTCCCCACTTCAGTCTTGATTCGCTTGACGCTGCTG", "fluorescence intensity": "4350 a.u."}
{"Oligonucleotide": "TGCGCAACAACTTTTCACGTGATATTATGTCTAGAAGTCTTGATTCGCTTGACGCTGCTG", "fluorescence intensity": "12800 a.u."}
{"Oligonucleotide": "CTTCTGCTATGGATGCACGTGAACGCTCTATTCAACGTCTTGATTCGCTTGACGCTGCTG", "fluorescence intensity": "16200 a.u."}
{"Oligonucleotide": "ATATTATCTTGCGAGCATGTGCGCTCAATTTCGGGGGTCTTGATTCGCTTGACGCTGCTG", "fluorescence intensity": "10600 a.u."}
{"Oligonucleotide": "AAAGCGGTAATTTGTCACCTGACTTCACATATCTATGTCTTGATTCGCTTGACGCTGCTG", "fluorescence intensity": "3820 a.u."}
{"Oligonucleotide": "CTACCACTCTGGAACGCCGTGACGGGCTCAGCCCCGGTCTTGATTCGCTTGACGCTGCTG", "fluorescence intensity": "4150 a.u."}
{"Oligonucleotide": "ATATCTATGGACGTCTTCGTGCCAGAAAGCGGCGAAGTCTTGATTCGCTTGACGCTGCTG", "fluorescence intensity": "5210 a.u."}
{"Oligonucleotide": "TGATGACGCCACCATCACGTTGCGACAGCGTCTGCTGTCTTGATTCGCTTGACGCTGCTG", "fluorescence intensity": "11100 a.u."}
{"Oligonucleotide": "AAATTACTAAGTTGTCACGGCACTTACCCCGTATGAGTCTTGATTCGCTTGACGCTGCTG", "fluorescence intensity": "3780 a.u."}
{"data": "Further values, each from its own experiment"}
{"Substance": "PhoQ, residues 284 288 289 292 302 303 SVHLDV", "target": "PhoP, residues 12 14 15 18 19 VHTVL (Escherichia coli, UniProt P23836)", "assay": "Sort-seq, refers to: YFP reporter", "test system": "E. coli", "setting": "PhoQ-PhoP variant library, with: 10 µM Mg2+", "how to read": "relative to: high Mg2+ state, higher = stronger signaling", "quantity": "fold induction", "value": 10.9}
{"note": "A few entries again (series 2):"}
{"Oligonucleotide": "TTAGGACTGGACAATGGGTTAGTGCTA", "fitted relative affinity": "-0.658 z-score"}
{"Oligonucleotide": "TTAGATATCGGGAGTGGATTAGTGCTA", "fitted relative affinity": "-0.362 z-score"}
{"Oligonucleotide": "TCACATCTCTGTCCGTGACTGTGCTAG", "fitted relative affinity": "0.903 z-score"}
{"Oligonucleotide": "TCATTCCTAATTCTCTTACTGTGCTAG", "fitted relative affinity": "2.09 z-score"}
{"Oligonucleotide": "CTTTAACTCATTTTCGTTTTGTGCTAG", "fitted relative affinity": "2.95 z-score"}
